Assay results gathered from unrelated publications.
Each numbered part is a random draw from the data of one study; scales do not carry over between parts.
UniProt Q15759, sequence (whole entry, looked up): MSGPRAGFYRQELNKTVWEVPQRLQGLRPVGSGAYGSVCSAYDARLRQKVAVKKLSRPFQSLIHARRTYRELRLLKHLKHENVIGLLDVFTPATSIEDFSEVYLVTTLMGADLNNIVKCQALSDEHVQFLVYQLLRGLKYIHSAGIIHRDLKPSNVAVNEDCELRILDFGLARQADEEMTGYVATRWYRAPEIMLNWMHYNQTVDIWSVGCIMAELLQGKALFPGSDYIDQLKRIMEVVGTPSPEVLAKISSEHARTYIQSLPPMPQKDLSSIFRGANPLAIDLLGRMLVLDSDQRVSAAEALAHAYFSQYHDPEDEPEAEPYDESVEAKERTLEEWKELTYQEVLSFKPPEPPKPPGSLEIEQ
UniProt P53778, sequence (whole entry, looked up): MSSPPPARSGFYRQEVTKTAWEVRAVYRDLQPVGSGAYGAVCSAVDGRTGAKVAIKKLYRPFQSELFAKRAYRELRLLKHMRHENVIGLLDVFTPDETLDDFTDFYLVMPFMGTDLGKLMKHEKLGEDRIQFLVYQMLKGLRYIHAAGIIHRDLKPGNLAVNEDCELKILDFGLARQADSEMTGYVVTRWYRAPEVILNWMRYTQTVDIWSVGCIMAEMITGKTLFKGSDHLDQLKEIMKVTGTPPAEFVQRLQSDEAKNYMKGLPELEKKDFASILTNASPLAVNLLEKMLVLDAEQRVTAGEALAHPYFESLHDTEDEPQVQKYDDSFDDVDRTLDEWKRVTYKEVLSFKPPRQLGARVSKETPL
UniProt P41595, sequence (whole entry, looked up): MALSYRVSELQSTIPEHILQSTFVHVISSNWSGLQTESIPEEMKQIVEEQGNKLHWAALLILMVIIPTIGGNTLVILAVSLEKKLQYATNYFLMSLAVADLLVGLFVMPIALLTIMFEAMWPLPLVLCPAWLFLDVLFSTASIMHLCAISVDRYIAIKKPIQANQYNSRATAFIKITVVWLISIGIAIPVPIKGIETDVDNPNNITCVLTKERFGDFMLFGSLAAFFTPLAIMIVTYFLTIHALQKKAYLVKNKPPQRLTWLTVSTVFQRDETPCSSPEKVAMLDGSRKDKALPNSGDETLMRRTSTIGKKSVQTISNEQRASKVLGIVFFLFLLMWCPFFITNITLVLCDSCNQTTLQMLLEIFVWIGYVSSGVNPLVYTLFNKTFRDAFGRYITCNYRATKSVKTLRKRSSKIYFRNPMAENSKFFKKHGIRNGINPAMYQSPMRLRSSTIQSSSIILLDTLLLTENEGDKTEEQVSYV
UniProt O15264, sequence (whole entry, looked up): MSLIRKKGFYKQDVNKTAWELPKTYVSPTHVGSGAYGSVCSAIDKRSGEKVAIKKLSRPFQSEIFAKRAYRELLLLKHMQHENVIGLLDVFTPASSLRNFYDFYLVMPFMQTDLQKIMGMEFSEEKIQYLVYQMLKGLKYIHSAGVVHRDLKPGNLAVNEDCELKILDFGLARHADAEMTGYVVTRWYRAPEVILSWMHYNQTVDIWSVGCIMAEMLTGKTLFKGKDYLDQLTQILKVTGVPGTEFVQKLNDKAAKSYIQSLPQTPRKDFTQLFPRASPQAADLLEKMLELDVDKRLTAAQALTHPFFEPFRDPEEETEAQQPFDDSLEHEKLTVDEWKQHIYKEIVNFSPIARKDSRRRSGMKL

Study 1
Compound: CCc1[nH]c(-c2ccc(OC)cc2)nc1-c1ccncc1
Observed: enzyme activity
Mode: inhibitor
Technique: radiometric
| target | IC50 |
| --- | --- |
| MAPK11 (Homo sapiens, UniProt Q15759) | > 30 µM |
| MAPK12 (Homo sapiens, UniProt P53778) | > 30 µM |
| MAPK13 (Homo sapiens, UniProt O15264) | > 30 µM |

Study 2
Organism: Sarcocystis neurona
Observed: parasite growth
Concentration: 10 µM
| SMILES | inhibition [%] |
| --- | --- |
| CC(C)(C)NCC(O)c1cc(O)cc(O)c1 (stereo not drawn) | -42.8 |
| CC1=C(/C=C/C(C)=C/C=C/C(C)=C/C(=O)O)C(C)(C)CCC1 | -39.9 |
| Nc1ccn([C@@H]2CS[C@H](CO)O2)c(=O)n1 | -33.6 |
| O=C1CN(/N=C/c2ccc(-c3ccc([N+](=O)[O-])cc3)o2)C(O)=N1 | 66.2 |
| Cc1c(OCC(F)(F)F)ccnc1C[S+]([O-])c1nc2ccccc2[nH]1 (stereo not drawn) | -120 |
| CC12CC3CC(C)(C1)CC(N)(C3)C2 | -25 |
| NNC(=O)c1ccncc1 | -26.6 |
| CCCNCC(O)COc1ccccc1C(=O)CCc1ccccc1 (stereo not drawn) | 65.8 |
| CC(C)(C)NC(=O)[C@@H]1C[C@@H]2CCCC[C@@H]2CN1C[C@@H](O)[C@H](Cc1ccccc1)NC(=O)[C@H](CC(N)=O)NC(=O)c1ccc2ccccc2n1 | 19.9 |
| CC(CCc1ccccc1)NCC(O)c1ccc(O)c(C(N)=O)c1 (stereo not drawn) | -31.4 |

Study 3
Species: mouse
Matrix: microsomes or S9
Concentration: 2 µM
Time: 0.5 h
| SMILES | remaining compound |
| --- | --- |
| Oc1cccc(-c2ncc(-c3ccccc3O)o2)c1 | 0.0979% |
| Cc1ccccc1-c1cccc2nc(-c3ccccc3)nn12 | 0.209% |
| O=C(c1ccc(F)cc1)c1c2nc[nH]c(=O)c2c2ccccn12 | 56.1% |
| CCc1cnc(C)nc1NCC1CC(C(C)C)=NO1 (stereo not drawn) | 93.8% |
| CCCn1cnc2cc(-c3noc(-c4ccc(Br)o4)n3)ccc21 | 21.9% |
| CN(C)C1CCN(c2ncnn3c(Br)ccc23)CC1 | 33.4% |
| COc1c(Cl)c(Nc2ccc3[nH]ncc3c2)nc(NC(C)C)c1Cl | 1.01% |

Other studies, line by line
| SMILES | target | observed | notes | quantity | result |
| --- | --- | --- | --- | --- | --- |
| CNC(=O)Nc1ccc2c(c1)CC[C@]21OC(=O)N(CC(=O)N(Cc2ccc(F)cc2)[C@@H](C)C(F)(F)F)C1=O | 5-hydroxytryptamine receptor 2B (HTR2B, Homo sapiens, UniProt P41595) | binding | off-target scan | Ki | 1.29 µM |

For quick reference, copied from above (study 2):
| SMILES | inhibition [%] |
| --- | --- |
| Nc1ccn([C@@H]2CS[C@H](CO)O2)c(=O)n1 | -33.6 |
